# Experimental data of several laboratories.
# Protocols differ between the studies behind these lines. Several values in a cell are separate wells, animals, samples, runs or records.
# HTR1B: 5-hydroxytryptamine receptor 1B (HTR1B, Homo sapiens, UniProt P28222)
# Chain of UniProt P28222 (whole entry, looked up): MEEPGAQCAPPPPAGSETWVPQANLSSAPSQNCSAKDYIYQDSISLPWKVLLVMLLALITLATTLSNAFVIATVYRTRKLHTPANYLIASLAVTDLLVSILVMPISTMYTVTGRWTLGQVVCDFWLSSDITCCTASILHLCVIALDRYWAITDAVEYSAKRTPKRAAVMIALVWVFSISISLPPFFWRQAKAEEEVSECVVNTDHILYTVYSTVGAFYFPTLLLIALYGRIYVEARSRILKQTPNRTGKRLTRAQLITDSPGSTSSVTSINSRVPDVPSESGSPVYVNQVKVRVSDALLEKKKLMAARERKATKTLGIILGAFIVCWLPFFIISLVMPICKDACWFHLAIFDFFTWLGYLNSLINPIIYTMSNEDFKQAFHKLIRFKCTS
# STK38: Serine/threonine-protein kinase 38 (STK38, Homo sapiens, UniProt Q15208)
# Chain of UniProt Q15208 (whole entry, looked up): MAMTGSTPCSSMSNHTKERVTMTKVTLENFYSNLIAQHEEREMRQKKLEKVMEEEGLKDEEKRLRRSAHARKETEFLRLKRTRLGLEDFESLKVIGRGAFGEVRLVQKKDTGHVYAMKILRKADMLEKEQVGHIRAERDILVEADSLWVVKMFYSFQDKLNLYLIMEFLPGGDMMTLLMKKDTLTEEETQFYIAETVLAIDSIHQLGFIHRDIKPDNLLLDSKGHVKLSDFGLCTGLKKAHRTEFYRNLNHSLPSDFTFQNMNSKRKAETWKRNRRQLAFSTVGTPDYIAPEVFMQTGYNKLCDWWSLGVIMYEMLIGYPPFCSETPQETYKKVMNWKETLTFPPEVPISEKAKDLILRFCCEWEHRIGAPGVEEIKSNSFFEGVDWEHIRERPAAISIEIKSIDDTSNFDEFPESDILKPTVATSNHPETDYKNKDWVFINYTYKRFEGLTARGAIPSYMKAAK
# SLC22A12: Solute carrier family 22 member 12 (SLC22A12, Homo sapiens, UniProt Q96S37)
# BRD3 BD2: Bromodomain-containing protein 3, BD2 (BRD3, Homo sapiens, UniProt Q15059)
# Chain of UniProt Q8IWT6 (whole entry, unmodified, looked up): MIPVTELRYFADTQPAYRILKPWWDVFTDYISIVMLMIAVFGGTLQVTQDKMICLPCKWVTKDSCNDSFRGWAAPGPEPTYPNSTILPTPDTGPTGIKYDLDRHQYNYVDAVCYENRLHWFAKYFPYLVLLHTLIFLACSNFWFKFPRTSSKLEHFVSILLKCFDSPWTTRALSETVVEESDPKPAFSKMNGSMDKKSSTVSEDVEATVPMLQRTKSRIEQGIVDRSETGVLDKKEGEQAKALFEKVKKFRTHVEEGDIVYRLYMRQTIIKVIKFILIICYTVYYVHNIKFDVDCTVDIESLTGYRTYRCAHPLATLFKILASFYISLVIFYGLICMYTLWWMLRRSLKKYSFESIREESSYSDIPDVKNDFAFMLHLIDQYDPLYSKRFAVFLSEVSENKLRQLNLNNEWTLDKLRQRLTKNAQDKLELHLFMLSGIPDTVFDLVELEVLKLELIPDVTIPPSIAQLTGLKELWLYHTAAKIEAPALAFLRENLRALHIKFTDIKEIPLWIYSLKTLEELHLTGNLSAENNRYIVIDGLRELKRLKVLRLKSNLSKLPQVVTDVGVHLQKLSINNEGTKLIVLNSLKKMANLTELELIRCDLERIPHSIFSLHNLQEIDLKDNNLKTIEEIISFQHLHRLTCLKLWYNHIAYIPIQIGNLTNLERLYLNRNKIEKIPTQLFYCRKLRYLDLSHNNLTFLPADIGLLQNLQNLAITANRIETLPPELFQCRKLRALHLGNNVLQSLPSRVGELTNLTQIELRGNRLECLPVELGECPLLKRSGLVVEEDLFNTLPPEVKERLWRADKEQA
# Chain of UniProt P10721 (whole entry, unmodified, looked up): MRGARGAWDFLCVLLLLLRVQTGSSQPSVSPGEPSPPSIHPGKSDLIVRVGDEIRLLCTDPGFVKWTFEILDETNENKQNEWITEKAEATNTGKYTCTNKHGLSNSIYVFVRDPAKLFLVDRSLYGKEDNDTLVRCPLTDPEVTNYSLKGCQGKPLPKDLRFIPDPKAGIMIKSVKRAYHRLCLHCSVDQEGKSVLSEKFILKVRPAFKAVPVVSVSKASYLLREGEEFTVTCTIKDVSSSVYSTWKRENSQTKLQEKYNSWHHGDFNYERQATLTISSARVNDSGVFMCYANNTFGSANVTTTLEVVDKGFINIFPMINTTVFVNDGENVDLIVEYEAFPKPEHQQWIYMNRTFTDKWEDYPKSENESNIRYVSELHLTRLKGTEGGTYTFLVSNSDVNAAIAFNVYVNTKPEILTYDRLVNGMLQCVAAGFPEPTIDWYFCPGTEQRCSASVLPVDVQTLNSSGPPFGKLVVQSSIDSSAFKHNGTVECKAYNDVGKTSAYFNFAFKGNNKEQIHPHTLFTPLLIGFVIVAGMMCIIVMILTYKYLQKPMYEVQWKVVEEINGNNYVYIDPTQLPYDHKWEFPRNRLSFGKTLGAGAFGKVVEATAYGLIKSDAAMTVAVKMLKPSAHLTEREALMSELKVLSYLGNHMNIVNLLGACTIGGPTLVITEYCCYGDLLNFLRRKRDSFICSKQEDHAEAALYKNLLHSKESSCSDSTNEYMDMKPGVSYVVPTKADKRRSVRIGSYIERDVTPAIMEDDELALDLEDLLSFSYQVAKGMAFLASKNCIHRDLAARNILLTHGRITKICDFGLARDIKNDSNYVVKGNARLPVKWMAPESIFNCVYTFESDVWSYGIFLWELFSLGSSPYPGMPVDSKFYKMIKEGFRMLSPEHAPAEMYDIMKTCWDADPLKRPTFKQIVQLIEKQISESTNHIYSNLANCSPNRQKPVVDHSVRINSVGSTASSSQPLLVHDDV
# Chain of UniProt P51685 (whole entry, looked up): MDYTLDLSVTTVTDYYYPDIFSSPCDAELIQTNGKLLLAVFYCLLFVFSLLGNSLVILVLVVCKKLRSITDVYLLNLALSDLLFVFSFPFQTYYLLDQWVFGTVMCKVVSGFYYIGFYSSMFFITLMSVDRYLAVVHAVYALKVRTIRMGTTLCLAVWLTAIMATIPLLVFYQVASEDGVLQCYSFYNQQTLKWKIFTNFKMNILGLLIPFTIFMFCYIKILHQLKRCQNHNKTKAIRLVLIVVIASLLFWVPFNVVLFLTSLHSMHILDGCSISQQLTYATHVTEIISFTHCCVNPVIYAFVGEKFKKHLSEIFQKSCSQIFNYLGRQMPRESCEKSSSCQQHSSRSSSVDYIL
# Chain of UniProt P41240 (whole entry, looked up): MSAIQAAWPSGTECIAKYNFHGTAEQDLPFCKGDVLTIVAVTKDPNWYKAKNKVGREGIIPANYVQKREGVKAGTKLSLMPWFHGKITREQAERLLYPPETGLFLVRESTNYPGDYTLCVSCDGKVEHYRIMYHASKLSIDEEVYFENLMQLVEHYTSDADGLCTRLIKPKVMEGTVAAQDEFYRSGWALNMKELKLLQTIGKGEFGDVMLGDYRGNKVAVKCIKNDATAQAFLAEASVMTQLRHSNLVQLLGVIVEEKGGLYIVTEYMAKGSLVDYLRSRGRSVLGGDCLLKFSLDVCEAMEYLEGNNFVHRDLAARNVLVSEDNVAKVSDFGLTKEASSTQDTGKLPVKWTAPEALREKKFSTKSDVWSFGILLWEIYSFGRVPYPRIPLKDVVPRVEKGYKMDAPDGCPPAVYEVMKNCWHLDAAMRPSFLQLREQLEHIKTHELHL
# Chain of UniProt P33981 (whole entry, looked up): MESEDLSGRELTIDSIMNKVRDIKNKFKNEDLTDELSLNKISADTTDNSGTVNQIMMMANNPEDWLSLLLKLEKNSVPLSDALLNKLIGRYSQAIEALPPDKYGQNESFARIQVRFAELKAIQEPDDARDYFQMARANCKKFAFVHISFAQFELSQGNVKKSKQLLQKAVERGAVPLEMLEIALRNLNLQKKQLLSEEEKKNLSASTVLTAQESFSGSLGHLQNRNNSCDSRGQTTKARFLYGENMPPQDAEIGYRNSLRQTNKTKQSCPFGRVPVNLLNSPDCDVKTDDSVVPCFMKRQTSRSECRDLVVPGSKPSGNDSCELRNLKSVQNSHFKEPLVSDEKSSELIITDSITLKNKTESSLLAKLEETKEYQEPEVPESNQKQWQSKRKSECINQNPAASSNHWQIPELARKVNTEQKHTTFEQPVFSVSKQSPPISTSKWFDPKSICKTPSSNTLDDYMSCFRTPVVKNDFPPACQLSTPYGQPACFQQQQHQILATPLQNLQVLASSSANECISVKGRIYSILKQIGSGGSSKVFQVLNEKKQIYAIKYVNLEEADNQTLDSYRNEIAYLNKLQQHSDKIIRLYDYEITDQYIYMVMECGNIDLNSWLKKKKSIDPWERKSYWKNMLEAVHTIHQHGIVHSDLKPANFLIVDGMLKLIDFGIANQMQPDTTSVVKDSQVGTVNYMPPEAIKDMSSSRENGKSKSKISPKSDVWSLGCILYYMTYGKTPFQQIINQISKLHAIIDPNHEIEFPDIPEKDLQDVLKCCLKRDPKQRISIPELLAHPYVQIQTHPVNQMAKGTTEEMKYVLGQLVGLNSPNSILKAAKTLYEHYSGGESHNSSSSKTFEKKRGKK
# Chain of UniProt P18113 (whole entry, looked up): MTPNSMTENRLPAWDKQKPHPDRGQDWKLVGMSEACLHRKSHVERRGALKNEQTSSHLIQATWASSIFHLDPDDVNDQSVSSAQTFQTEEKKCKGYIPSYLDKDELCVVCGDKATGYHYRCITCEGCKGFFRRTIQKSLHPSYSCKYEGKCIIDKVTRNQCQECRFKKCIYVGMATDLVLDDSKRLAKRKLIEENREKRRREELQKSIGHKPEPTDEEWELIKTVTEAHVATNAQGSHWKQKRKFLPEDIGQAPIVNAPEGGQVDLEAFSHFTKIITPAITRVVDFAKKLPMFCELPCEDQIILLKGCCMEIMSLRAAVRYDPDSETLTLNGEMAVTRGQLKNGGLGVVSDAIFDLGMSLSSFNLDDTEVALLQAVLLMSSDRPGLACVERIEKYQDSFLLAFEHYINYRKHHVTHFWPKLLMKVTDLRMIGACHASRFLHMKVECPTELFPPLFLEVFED
SMILES,target,test,system,setting,inhibition
Clc1cccc(OC[C@@H]2CN(CCN3CCc4ccccc43)CCO2)c1,HTR1B,radioligand binding,,"concentration not given, added: [3H]5-CT",32.6%
CCS(=O)(=O)c1nc(S(=O)(=O)c2ccccc2Cl)c(N2CCN(C)C(=O)[C@H]2C)s1,HTR1B,,,10 µM,2.32%
Cc1cc(-c2ccnc3[nH]cc(F)c23)cc(F)c1[C@@]1(O)[C@H](C)CN(C2CCS(=O)(=O)CC2)C[C@@H]1C,STK38,"ATP probe binding, KiNativ, refers to: Lys2 site",HEK293T cell lysate,1 µM,11.8%
Cc1ccc(S(=O)(=O)n2cc(/C=N/NC(=S)Nc3ccccc3)c3ccccc32)cc1,mushroom tyrosinase,"enzyme activity, inhibitor",,"0.5 mM, added: L-DOPA substrate",74.4%
Cc1cc(-c2ccnc3[nH]cc(F)c23)cc(F)c1[C@@]1(O)[C@H](C)CN(C(=O)CN)C[C@@H]1C,STK38,"ATP probe binding, KiNativ, refers to: Lys1 site",HEK293T cell lysate,1 µM,15.7%
COc1ccc(NC(=S)N/N=C/c2cn(S(=O)(=O)c3ccc(C)cc3)c3ccccc23)cc1,mushroom tyrosinase,"enzyme activity, inhibitor",,"0.5 mM, added: L-DOPA substrate",88%
COc1ccc(F)cc1C(=O)NCc1ccc(-c2nn([C@@H](C)C(F)(F)F)c(N)c2C(N)=O)cc1,"Tyrosine-protein kinase CSK (CSK, Homo sapiens, UniProt P41240)","probe binding, competitive chemoproteomics",human PBMCs,0.1 µM,16.1%
O=C(c1ccc(F)cc1)N(Cc1ccccc1)C1CCCCC1,"Sodium-dependent serotonin transporter (SLC6A4, Homo sapiens, UniProt P31645)",,,10 µM,3%
[2H]c1cc(C)c(NC(=O)c2cnc(Nc3cc(N4CCCCC4)nc(C)n3)s2)c(Cl)c1,"Mast/stem cell growth factor receptor Kit (KIT, Homo sapiens, UniProt P10721, T670I)",,,0.01 µM,< 30%
CC[C@@H]1[C@H](F)C(=O)N[C@@H]1COc1nccc2cc(C(N)=O)c(OC)cc12,STK38,"ATP-site probe binding, ActivX profiling",THP-1 cell lysate,"0.04 mM, Lys2 site",5.4%
c1cncc(OC[C@H]2CN(CCN3CCc4ccccc43)CCO2)c1,HTR1B,radioligand binding,,"concentration not given, added: [3H]5-CT",-5.9%
O=C(Nc1cccc2c(=O)cc(-c3nnn[nH]3)oc12)c1ccc(OCCCCc2ccccc2)cc1,"LRRC8A/LRRC8C (Homo sapiens, UniProt Q8IWT6+Q8TDW0, L134K/L136K)","ion current, whole-cell patch clamp",HCT LRRC8-/- cells,"0.1 µM, -100 mV, L134K/L136K heteromers",-0.0931% and 5.96% and -5.7% and 15.2% and 4.49% and 10.5%
Cc1ccc(OC[C@H]2CN(CCN3CCc4ccccc43)CCO2)cn1,HTR1B,radioligand binding,,"concentration not given, added: [3H]5-CT",-0.6%
Cc1nn(-c2nc3ccccc3s2)c(O)c1C(c1ccccc1C(=O)O)c1c(C)nn(-c2nc3ccccc3s2)c1O,"Cyclic GMP-AMP synthase, catalytic domain; with DNA (CGAS, Homo sapiens, UniProt Q8N884)","cGAS phase separation, inhibitor",,10 µM,91.5%
O=C(Nc1ccc(S(=O)(=O)N2CCC(Cl)CC2)cc1)c1ccc([N+](=O)[O-])o1,"Thyroid hormone receptor beta (Rattus norvegicus, UniProt P18113)",biochemical,,10 µM,7%
NC(=O)CCNC(=S)NCCCC[C@H](NS(=O)(=O)c1cccc(F)c1)C(=O)N[C@@H](Cc1c[nH]c2ccccc12)C(=O)NC1CCC1,"NAD-dependent protein deacylase sirtuin-6 (SIRT6, Homo sapiens, UniProt Q8N6T7)",demyristoylase activity,,"10 µM, added: myristoylated peptide substrate and NAD+ 500 µM",< 0%
CCNCc1cnn(-c2ccc(-n3ccc(Cl)c(Cl)c3=O)cc2)c1C(F)(F)F,"Short transient receptor potential channel 6 (TRPC6, Homo sapiens, UniProt Q9Y210)","ion current, inhibitor, whole-cell patch clamp",,"10 µM, added: CCh-activated",no inhibition
C#Cc1cc(-c2cc(Nc3nc(N[C@@H](C)c4ccc(F)cn4)ncc3Cl)n[nH]2)ccc1C=O,"Dual specificity protein kinase TTK (TTK, Homo sapiens, UniProt P33981)","enzyme activity, inhibitor",,0.2 µM,7.87%
O=C(NO)c1ccc(CN2CCCCc3ccccc32)c(F)c1,HTR1B,"radioligand binding, PDSP radioligand binding",,10 µM,-26%
Cc1ccc(S(=O)(=O)n2cc(/C=N/NC(=S)Nc3cccc(Cl)c3Cl)c3ccccc32)cc1,mushroom tyrosinase,"enzyme activity, inhibitor",,"0.5 mM, added: L-DOPA substrate",92.2%
O=C(O)/C=C/c1nccc2c3ccccc3n(Cc3ccc(Br)c4ccccc34)c12,SLC22A12,"uric acid uptake, inhibitor",HEK293 transiently expressing URAT1,"20 µM, added: [14C]uric acid",100%
Cc1ccc(S(=O)(=O)n2cc(/C=N/NC(=S)Nc3cc(C)cc(C)c3)c3ccccc32)cc1,mushroom tyrosinase,"enzyme activity, inhibitor",,"0.5 mM, added: L-DOPA substrate",90.8%
COc1cc2c(cc1OC)C(=O)N(CCCCN1CCN(c3ccccc3OC)CC1)C2,HTR1B,radioligand binding,,"concentration not given, added: [3H]5-CT",89.9%
CN1CCN(c2cc(-c3ccncc3)c(-c3ccc4ccccc4c3)nn2)CC1,"C5a anaphylatoxin chemotactic receptor 1 (C5AR1, Homo sapiens, UniProt P21730)","antagonist, FLIPR",,10 µM,-5.2%
COc1ccc(S(=O)(=O)NC(=O)c2cc3ccccc3n2Cc2ccc(C3CC3)c3ccccc23)cc1,SLC22A12,"uric acid uptake, inhibitor",HEK293 transiently expressing URAT1,"10 µM, added: [14C]uric acid",-7.67% and -5.18%
Cc1ccc(S(=O)(=O)n2cc(/C=N/NC(=S)NC3CCCCC3)c3ccccc32)cc1,mushroom tyrosinase,"enzyme activity, inhibitor",,"0.5 mM, added: L-DOPA substrate",71.5%
Cc1cc2c(cc1N1C(=O)c3cccc4c(Cl)ccc(c34)C1=O)n(C)c(=O)n2C,"Transcription initiation factor TFIID subunit 1, BD2; with histone H4 (TAF1, Homo sapiens, UniProt P21675)","bromodomain 2 binding, NanoBRET",,10 µM,35%
O=C(CN1CCO[C@@H](COc2ccccn2)C1)N1CCc2ccccc21,HTR1B,radioligand binding,,"concentration not given, added: [3H]5-CT",-14.1%
CC[C@]12CCCN3CCc4c([nH]c5ccccc45)[C@]31N(Cc1cn(Cc3ccccc3)nn1)C(=O)C2,"C-C chemokine receptor type 8 (CCR8, Homo sapiens, UniProt P51685)","beta-arrestin recruitment, antagonist, PathHunter chemiluminescence",,"20 µM, added: agonist at EC80",59%
[2H]c1cc(C)c(NC(=O)c2cnc(Nc3cc(N4CCC(O)CC4)nc(C)n3)s2)c(Cl)c1,"Mast/stem cell growth factor receptor Kit (KIT, Homo sapiens, UniProt P10721, V560G)",,,0.001 µM,< 50%
Cc1cc2c(cc1N1C(=O)c3cccc4c(CCCO)ccc(c34)C1=O)n(C)c(=O)n2C (racemic),BRD3 BD2,"binding, BROMOscan binding",,1000 nM,89%
COc1cc(C(=O)NS(=O)(=O)c2ccccc2C)ccc1Cc1cn(C)c2ccc(NC(=O)OC3CCCC3)cc12,"Volume-regulated anion channel subunit LRRC8C, part LRRC8A IL1 chimera (LRRC8C, Homo sapiens, UniProt Q8TDW0, C43G)","ion current, inhibitor, whole-cell patch clamp",HCT LRRC8-/- cells,"10 µM, +100 mV",97.1% and 95.7% and 97.7% and 90.1% and 91.6%
COc1cc(-c2cc(C(C)=O)n3ccccc23)cc(OC)c1Cn1ccnc1,BRD3 BD2,,,1 µM,-3.94%
Clc1cncc(OC[C@H]2CN(CCN3CCc4ccccc43)CCO2)c1,HTR1B,radioligand binding,,"concentration not given, added: [3H]5-CT",-4.5%
CCc1oc2ccccc2c1C(=O)c1cc(Br)c(O)c(Br)c1,"Solute carrier family 22 member 12 (SLC22A12, Homo sapiens, UniProt Q96S37, N237A)",uric acid uptake,HEK293T transfected with SLC22A12 N237A,"0.5 µM, 10 min, 37 °C, added: [14C]urate 200 µM",70.9% and 69.4% and 69.7%
O=C(CN1CCO[C@@H](COc2cccnc2)C1)N1CCc2ccccc21,HTR1B,radioligand binding,,"concentration not given, added: [3H]5-CT",14%
OCCCN1CC[C@@H]2C[C@H]1c1cc(-c3ccc(C(F)(F)F)cc3)ccc12,HTR1B,"radioligand binding, PDSP competition binding",,10 µM,< 50%

# Excerpt of the above:
SMILES,target,test,system,setting,inhibition
O=C(Nc1ccc(S(=O)(=O)N2CCC(Cl)CC2)cc1)c1ccc([N+](=O)[O-])o1,"Thyroid hormone receptor beta (Rattus norvegicus, UniProt P18113)",biochemical,,10 µM,7%
NC(=O)CCNC(=S)NCCCC[C@H](NS(=O)(=O)c1cccc(F)c1)C(=O)N[C@@H](Cc1c[nH]c2ccccc12)C(=O)NC1CCC1,"NAD-dependent protein deacylase sirtuin-6 (SIRT6, Homo sapiens, UniProt Q8N6T7)",demyristoylase activity,,"10 µM, added: myristoylated peptide substrate and NAD+ 500 µM",< 0%
